Measurements gathered from unrelated publications.
Numbered parts are unrelated; each lists some results of a single study.
Sequence of UniProt P23458 (whole entry, looked up): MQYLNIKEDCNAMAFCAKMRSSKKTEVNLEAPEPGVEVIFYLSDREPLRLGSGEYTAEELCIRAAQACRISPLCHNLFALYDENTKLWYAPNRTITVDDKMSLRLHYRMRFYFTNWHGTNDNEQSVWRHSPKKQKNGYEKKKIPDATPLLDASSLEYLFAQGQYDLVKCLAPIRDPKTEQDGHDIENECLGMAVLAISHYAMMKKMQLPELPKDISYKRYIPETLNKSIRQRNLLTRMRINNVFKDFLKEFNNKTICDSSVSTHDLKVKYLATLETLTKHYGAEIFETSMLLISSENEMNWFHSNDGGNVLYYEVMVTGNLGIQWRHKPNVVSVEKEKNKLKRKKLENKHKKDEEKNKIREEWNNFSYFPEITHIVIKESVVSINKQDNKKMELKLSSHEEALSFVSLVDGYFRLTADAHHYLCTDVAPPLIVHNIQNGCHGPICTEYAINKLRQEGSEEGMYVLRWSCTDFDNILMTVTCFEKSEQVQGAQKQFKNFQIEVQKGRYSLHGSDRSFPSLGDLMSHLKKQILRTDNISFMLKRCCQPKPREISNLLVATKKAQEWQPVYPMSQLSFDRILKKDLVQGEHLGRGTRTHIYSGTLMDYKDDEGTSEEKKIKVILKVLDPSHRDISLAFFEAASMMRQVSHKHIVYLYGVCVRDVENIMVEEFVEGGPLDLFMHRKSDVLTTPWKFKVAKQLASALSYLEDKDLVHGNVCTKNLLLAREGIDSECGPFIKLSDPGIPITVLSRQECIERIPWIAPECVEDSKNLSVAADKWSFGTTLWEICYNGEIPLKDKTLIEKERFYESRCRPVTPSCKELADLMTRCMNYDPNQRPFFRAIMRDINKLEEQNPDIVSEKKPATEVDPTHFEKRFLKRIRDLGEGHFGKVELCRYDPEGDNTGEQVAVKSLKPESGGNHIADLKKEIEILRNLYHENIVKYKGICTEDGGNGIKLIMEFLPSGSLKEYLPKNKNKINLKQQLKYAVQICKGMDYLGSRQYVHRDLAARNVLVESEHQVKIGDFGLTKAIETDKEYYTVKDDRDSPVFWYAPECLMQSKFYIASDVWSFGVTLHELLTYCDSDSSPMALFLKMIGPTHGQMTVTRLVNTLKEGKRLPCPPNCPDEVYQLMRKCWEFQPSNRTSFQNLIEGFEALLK
Sequence of UniProt Q13705 (whole entry, looked up): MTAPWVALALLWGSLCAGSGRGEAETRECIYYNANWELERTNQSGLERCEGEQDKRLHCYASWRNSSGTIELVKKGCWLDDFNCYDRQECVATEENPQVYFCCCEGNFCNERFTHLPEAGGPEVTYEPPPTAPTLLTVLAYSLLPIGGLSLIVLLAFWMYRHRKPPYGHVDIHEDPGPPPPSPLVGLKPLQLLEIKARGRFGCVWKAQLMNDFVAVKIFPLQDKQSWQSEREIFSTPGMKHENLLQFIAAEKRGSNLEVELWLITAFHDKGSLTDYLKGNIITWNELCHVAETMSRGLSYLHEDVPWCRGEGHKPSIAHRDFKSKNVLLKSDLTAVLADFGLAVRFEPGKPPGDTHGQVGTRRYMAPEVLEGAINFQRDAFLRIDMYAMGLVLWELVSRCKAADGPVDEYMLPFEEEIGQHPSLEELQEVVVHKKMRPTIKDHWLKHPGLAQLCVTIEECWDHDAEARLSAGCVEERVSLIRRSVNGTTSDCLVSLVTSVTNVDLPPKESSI
Sequence of UniProt Q8TAS1 (whole entry, looked up): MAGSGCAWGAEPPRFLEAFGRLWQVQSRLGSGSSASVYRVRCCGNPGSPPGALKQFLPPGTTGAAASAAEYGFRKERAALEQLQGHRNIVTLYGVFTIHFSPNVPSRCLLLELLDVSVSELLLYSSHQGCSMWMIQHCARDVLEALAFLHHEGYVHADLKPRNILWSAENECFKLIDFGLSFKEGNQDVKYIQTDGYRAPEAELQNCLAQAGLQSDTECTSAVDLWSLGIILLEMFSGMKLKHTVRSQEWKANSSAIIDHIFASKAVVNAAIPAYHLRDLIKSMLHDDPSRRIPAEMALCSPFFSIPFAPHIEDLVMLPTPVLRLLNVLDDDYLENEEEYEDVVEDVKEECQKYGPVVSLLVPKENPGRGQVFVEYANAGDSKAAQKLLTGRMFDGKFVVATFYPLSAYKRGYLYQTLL
Sequence of UniProt Q15139 (whole entry, looked up): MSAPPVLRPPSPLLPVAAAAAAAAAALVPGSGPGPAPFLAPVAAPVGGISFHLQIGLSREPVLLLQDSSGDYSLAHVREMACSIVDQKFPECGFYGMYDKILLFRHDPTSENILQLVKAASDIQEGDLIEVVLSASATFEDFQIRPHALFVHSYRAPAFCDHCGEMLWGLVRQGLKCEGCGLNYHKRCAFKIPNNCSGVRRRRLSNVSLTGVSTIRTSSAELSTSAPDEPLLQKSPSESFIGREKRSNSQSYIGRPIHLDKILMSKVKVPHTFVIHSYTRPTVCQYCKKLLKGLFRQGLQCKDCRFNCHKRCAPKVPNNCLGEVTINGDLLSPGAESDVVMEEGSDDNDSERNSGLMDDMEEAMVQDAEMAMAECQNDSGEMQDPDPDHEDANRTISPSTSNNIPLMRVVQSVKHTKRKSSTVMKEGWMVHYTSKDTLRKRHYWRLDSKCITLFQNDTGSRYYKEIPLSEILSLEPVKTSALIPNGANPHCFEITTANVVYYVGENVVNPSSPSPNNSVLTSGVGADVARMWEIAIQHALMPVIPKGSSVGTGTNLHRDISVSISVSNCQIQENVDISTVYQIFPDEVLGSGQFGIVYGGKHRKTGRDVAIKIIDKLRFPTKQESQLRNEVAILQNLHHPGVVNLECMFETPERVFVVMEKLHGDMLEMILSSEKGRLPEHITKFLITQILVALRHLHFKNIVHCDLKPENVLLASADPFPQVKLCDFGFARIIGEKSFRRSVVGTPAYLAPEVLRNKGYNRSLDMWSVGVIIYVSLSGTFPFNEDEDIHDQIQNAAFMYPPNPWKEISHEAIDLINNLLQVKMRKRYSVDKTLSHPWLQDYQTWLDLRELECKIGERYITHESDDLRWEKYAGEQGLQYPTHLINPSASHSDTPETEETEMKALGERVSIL
Sequence of UniProt Q8NER5 (whole entry, looked up): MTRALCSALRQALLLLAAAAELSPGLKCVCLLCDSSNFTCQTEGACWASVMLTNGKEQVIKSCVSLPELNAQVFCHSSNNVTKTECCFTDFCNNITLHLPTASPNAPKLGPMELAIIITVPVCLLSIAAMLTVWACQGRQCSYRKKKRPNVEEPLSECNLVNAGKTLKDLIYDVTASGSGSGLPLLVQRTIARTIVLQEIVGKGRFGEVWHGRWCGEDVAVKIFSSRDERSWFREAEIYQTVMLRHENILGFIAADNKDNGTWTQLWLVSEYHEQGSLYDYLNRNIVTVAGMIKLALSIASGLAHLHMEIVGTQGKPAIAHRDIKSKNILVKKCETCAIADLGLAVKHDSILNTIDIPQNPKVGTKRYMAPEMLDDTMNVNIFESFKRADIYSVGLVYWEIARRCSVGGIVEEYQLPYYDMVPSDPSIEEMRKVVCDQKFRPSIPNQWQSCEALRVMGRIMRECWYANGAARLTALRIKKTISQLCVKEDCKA

Block 1
Structure (SMILES): C=CCc1ccc(O)c(-c2cc(CC=C)ccc2O)c1
Target: Anoctamin-1 (ANO1, Homo sapiens, UniProt Q5XXA6, del476-501)
Sequence of UniProt Q5XXA6 (whole entry, unmodified, looked up): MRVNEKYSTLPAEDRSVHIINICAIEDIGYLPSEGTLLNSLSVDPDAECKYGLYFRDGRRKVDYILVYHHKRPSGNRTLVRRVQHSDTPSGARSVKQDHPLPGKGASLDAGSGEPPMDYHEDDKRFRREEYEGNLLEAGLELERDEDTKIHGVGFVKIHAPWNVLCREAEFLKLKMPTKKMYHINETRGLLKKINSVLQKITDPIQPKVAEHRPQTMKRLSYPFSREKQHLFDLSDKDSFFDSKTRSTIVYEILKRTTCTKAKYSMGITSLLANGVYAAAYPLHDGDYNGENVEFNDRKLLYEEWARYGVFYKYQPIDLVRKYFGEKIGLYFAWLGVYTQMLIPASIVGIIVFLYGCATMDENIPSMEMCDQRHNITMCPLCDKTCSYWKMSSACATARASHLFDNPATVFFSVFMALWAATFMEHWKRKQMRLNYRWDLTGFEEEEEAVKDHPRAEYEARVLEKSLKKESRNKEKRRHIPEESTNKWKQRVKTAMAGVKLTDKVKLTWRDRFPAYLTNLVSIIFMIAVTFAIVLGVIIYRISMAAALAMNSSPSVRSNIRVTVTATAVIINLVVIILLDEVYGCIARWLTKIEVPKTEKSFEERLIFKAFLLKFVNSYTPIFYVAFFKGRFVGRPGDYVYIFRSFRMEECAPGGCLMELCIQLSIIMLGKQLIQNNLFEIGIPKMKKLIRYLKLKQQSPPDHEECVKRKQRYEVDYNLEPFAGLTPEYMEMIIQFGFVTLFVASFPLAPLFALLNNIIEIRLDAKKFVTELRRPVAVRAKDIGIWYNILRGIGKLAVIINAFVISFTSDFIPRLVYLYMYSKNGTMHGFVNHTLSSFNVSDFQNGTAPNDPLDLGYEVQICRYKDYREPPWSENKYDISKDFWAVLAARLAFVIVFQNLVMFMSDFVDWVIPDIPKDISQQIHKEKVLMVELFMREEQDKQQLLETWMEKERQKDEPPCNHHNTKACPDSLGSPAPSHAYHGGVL
Observed: chloride current
Method: whole-cell patch clamp
conditions	normalised current
100 µM, -40 mV, 300 nM free Ca2+, added: honokiol and magnolol 3 µM	-0.0084
1 µM, -60 mV, 300 nM free Ca2+	-0.0885
30 µM, -60 mV, 300 nM free Ca2+	-0.0371
30 µM, -20 mV, 300 nM free Ca2+, added: honokiol and magnolol 3 µM	-0.0103

Block 2
Cell line: mouse MPNST tumor cells
Method: high-content immunofluorescence imaging
Item: nuclear SOX9
Tested at: 10 µM
Time: 12 h
Notes: mean of 2 replicates
Relative to: DMSO control
Direction: higher = more nuclear SOX9
SMILES	nuclear SOX9 intensity
CC(C)C[C@@H](C(=O)N[C@@H](Cc1ccc(OCc2ccccc2)cc1)C(=O)NC(C)(C)C)N(C)Cc1ccc(C(C)(C)C)cc1	110 % of DMSO
O=S(=O)(O)CCS	88.9 % of DMSO
O=c1[nH]nc(Sc2ncc([N+](=O)[O-])s2)n1-c1ccc2c(c1)OCCO2	134 % of DMSO
OCC1OC(n2cnc3c(NC4CCCC4)nc(Cl)nc32)C(O)C1O (stereo not shown)	97 % of DMSO
CC1=C(CC(=O)O)c2cc(F)ccc2/C1=C\c1ccc([S+](C)[O-])cc1 (stereo not shown)	90.7 % of DMSO
CCN(CC)C(=O)c1ccc(Nc2nc(OCC3CCCCC3)c3[nH]cnc3n2)cc1	161 % of DMSO
CSc1nc2ccc3nc(NC(=O)C(c4ccccc4)c4ccccc4)sc3c2s1	99.2 % of DMSO

Block 3
Target: Calcium/calmodulin-dependent protein kinase type II subunit alpha (CAMK2A, Homo sapiens, UniProt Q9UQM7)
Sequence of UniProt Q9UQM7 (whole entry, looked up): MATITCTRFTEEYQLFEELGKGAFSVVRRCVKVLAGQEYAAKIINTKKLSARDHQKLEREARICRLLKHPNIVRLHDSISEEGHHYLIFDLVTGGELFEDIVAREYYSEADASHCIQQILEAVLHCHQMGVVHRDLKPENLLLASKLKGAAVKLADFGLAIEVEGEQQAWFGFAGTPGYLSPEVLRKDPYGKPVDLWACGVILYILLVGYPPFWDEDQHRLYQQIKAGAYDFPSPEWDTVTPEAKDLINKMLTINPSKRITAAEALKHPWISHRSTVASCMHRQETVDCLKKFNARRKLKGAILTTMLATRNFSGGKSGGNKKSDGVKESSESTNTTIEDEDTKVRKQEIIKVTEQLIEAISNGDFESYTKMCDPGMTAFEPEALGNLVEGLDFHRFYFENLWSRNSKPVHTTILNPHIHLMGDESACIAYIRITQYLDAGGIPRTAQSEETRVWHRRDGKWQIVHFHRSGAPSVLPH
Observed: enzyme activity
Action: inhibitor
Tested at: 10 µM
Compound	inhibition [%]
O=C(O)CCn1c2c(c3ccccc31)C[C@H](NS(=O)(=O)c1ccc(F)cc1)CC2	-5
N[C@@H](CCC(=O)N[C@@H](CS)C(=O)O)C(=O)O	24
O=C(/C=C/c1ccccc1)c1ccccc1O	-5
C=CC[N+]1([C@H]2C[C@H]3[C@@H]4CC[C@H]5C[C@H](O)[C@@H](N6CCOCC6)C[C@]5(C)[C@H]4CC[C@]3(C)[C@H]2OC(C)=O)CCCC1	7
COc1ccc(CN2[C@@H]3C[C@H]2CN(c2ccc(-c4cc(OCC(C)(C)O)cn5ncc(C#N)c45)cn2)C3)cn1	5
OC[C@H]1O[C@@H](Oc2ccc3c(c2)OC[C@H]2c4cc5c(cc4O[C@@H]32)OCO5)[C@H](O)[C@@H](O)[C@@H]1O	15
CCC(C(=O)O)C(=O)O	-3

Block 4
Cell line: HaCaT
Tested at: 100 µM
Time: 36 h
SMILES	viability [%]
CN(Cc1cnc2nc(N)nc(N)c2n1)c1ccc(C(=O)N[C@@H](CCC(=O)O)C(=O)O)cc1	57.2
Cc1ccc(/C(=C\CN2CCCC2)c2ccccn2)cc1	75.6
CCCCCOC(=O)Nc1nc(=O)n([C@@H]2O[C@H](C)[C@@H](O)[C@H]2O)cc1F	44.5
CN(C)[C@@H](CCOc1cccc2ccccc12)c1ccccc1	4.68
C[C@H](Cn1cnc2c(N)ncnc21)OCP(=O)(O)O	93.1
CC(=O)[C@@]1(O)CC[C@H]2[C@@H]3CCC4=CC(=O)CC[C@]4(C)[C@H]3CC[C@@]21C	89.1

Block 5
Compound: O=C1NC(=O)C(c2cn(-c3ccccc3)nc2-c2ccc(F)cc2)N1 (stereo not shown)
Action: inhibitor
Tested at: 5 µM
target	test	test system	conditions	how to read	log2 fold change
Cytoplasmic tyrosine-protein kinase BMX (BMX, Homo sapiens, UniProt P51813)	kinase–CDC37 interaction	–	kinome plate 3@D10	relative to: vehicle	-0.084
Activin receptor type-2B (ACVR2B, Homo sapiens, UniProt Q13705)	cell-based kinome profiling	human cells	–	relative to: vehicle control	-0.342
Activin receptor type-1C (Homo sapiens, UniProt Q8NER5)	cell-based kinome profiling	human cells	–	relative to: vehicle control	-0.158
Serine/threonine-protein kinase Kist (UHMK1, Homo sapiens, UniProt Q8TAS1)	kinase-CDC37 interaction	human cells	–	relative to: vehicle	0.37
Interferon-induced, double-stranded RNA-activated protein kinase (EIF2AK2, Homo sapiens, UniProt P19525)	kinase–CDC37 interaction	–	kinome plate 1@G07	relative to: vehicle control	-0.368
Protein-tyrosine kinase 6 (PTK6, Homo sapiens, UniProt Q13882)	kinase activity	–	cell-based kinome screen	relative to: vehicle	-0.005

Block 6
SMILES: COc1cc(-c2cn(C3CCc4c(F)cccc4N(CC(F)(F)F)C3=O)nn2)ccc1-n1cnc(C)c1 (stereo not shown)
Method: competition with immobilised ligand
Tested at: 1 µM
target	test	remaining binding
Mitogen-activated protein kinase 7 (MAPK7, Homo sapiens, UniProt Q13164)	cell-free assay	80%
Tyrosine-protein kinase JAK2, JH1 (JAK2, Homo sapiens, UniProt O60674)	cell-free assay	100%
Mitogen-activated protein kinase 15 (MAPK15, Homo sapiens, UniProt Q8TD08)	cell-free assay	78%
Serine/threonine-protein kinase Nek9 (NEK9, Homo sapiens, UniProt Q8TD19)	cell-free assay	100%
Serine/threonine-protein kinase PAK 6 (PAK6, Homo sapiens, UniProt Q9NQU5)	cell-free assay	100%
Serine/threonine-protein kinase ULK3 (ULK3, Homo sapiens, UniProt Q6PHR2)	cell-free assay	63%
Interleukin-1 receptor-associated kinase 4 (IRAK4, Homo sapiens, UniProt Q9NWZ3)	cell-free assay	100%
Peripheral plasma membrane protein CASK (CASK, Homo sapiens, UniProt O14936)	cell-free assay	71%
Serine/threonine-protein kinase SIK3 (SIK3, Homo sapiens, UniProt Q9Y2K2)	cell-free assay	100%
Tyrosine-protein kinase ABL1, phosphorylated (ABL1, Homo sapiens, UniProt P00519, E255K)	binding	100%
Tyrosine-protein kinase receptor Tie-1 (TIE1, Homo sapiens, UniProt P35590)	cell-free assay	100%
Serine/threonine-protein kinase pim-3 (PIM3, Homo sapiens, UniProt Q86V86)	cell-free assay	90%
Serine/threonine-protein kinase 33 (STK33, Homo sapiens, UniProt Q9BYT3)	cell-free assay	100%
Tyrosine-protein kinase CSK (CSK, Homo sapiens, UniProt P41240)	cell-free assay	100%
Serine/threonine-protein kinase D1 (PRKD1, Homo sapiens, UniProt Q15139)	cell-free assay	100%
RAC-gamma serine/threonine-protein kinase (AKT3, Homo sapiens, UniProt Q9Y243)	cell-free assay	100%
Tyrosine-protein kinase JAK1, JH1 (JAK1, Homo sapiens, UniProt P23458)	cell-free assay	100%
Serine/threonine-protein kinase MARK2 (MARK2, Homo sapiens, UniProt Q7KZI7)	cell-free assay	100%
Mitogen-activated protein kinase 9 (MAPK9, Homo sapiens, UniProt P45984)	cell-free assay	92%
Cyclin-dependent kinase 8 (CDK8, Homo sapiens, UniProt P49336)	cell-free assay	100%
Phosphatidylinositol 4,5-bisphosphate 3-kinase catalytic subunit alpha isoform (PIK3CA, Homo sapiens, UniProt P42336)	cell-free assay	94%
Serine/threonine-protein kinase OSR1 (OXSR1, Homo sapiens, UniProt O95747)	cell-free assay	100%
Serine/threonine-protein kinase Nek1 (NEK1, Homo sapiens, UniProt Q96PY6)	cell-free assay	100%
Serine/threonine-protein kinase RIO2 (RIOK2, Homo sapiens, UniProt Q9BVS4)	cell-free assay	100%
Tyrosine-protein kinase BTK (BTK, Homo sapiens, UniProt Q06187)	cell-free assay	100%
